Published values gathered from unrelated publications.
Each line is one published result; not all experiments were run side by side. ± gives the spread as reported.

Compound | assay | system | conditions | scale | measurement | value
CCNCC#CCNc1ccnc2cc(Cl)ccc12 | refers to: compound as metabolite | human hepatocytes | 10 µM DAQ, 30 min | baseline: parent at time zero | relative UV abundance | 37.2%
C=CC(=O)Nc1cc(Nc2nccc(-c3cn(C4CC4)c4ccccc34)n2)c(OC)cc1N(C)CCNC | long-term storage stability | rat plasma | 40 ng/mL, 3 weeks, -80 °C | baseline: nominal concentration | relative error | 0%
[Cl-].[Cl-].[Ru+2].c1ccc(-c2ccccn2)nc1.c1ccc(-c2ccccn2)nc1.c1ccc(-c2ccccn2)nc1 | C18 HPLC retention time | water | 100 µM | baseline: standards of known log P | relative log P | 1.11
CC[C@H](C)[C@@H](C(=O)N[C@@H](CC(C)C)C(=O)N[C@@H](CO)C(=O)N[C@@H](CO)C(=O)N[C@H](C(=O)N[C@@H](CCC(=O)O)C(=O)N[C@H](C(=O)NCC(=O)N[C@@H](CO)C(=O)N[C@@H](CC(N)=O)C(=O)N[C@H](C(=O)N1C[C@H](O)C[C@H]1C(N)=O)[C@@H](C)O)C(C)C)[C@@H](C)O)N(C)C(=O)[C@H](C)NC(=O)CN(C)C(=O)[C@H](Cc1ccccc1)NC(=O)[C@H](CO)NC(=O)[C@H](CO)NC(=O)[C@H](CCCNC(=N)N)NC(=O)[C@H](CCC(N)=O)NC(=O)[C@H](CC(C)C)NC(=O)[C@H](Cc1ccccc1)NC(=O)[C@H](CCCC(=O)O)NC(=O)[C@H](C)NC(=O)[C@H](CC(C)C)NC(=O)[C@H](CCCNC(=N)N)NC(=O)[C@H](CCC(=O)O)NC(=O)[C@@H](NC(=O)[C@H](C)NC(=O)[C@@H]1CCCCNC(=O)C[C@H](NC(=O)[C@H](CCCNC(=N)N)NC(=O)CC[C@H](NC(=O)CCCCCCCCCCCCCCCCCCC(=O)O)C(=O)O)C(=O)NCC(=O)N[C@@H]([C@@H](C)O)C(=O)N[C@@H](C)C(=O)N[C@@H]([C@@H](C)O)C(=O)N1)[C@@H](C)O | RP-UPLC | formulation, phosphate buffer, phenol, propylene glycol | 4 weeks, pH 7.4, 40 °C | baseline: semaglutide | relative degradation rate | 1.8
[Cl-].[Cl-].[Ru+2].c1ccc(-c2ccnc3c2ccc2c(-c4ccccc4)ccnc23)cc1.c1cnc2c(c1)ccc1cccnc12.c1cnc2c(c1)ccc1cccnc12 | C18 HPLC retention time | water | 100 µM | baseline: standards of known log P | relative log P | 2.31
CC1=CC(C)=[N+]2C1=C(CO)c1c(C)cc(C)n1[B-]2(C)C | DPBF degradation | isopropyl alcohol | irradiation above 500 nm | baseline: methylene blue | relative singlet oxygen generation | 202 ± 5%
C[C@@H](C(=O)O)c1ccc(-c2ccccc2)c(F)c1 | HPLC | solution | concentration not given, 12 h, room temperature |  | relative change of HPLC peak area | 1.3%
CCCNC(=O)[C@H]1O[C@@H]1C(=O)N[C@H](C(=O)N1CCC[C@H]1C(=O)OCC1=C2C(C)=CC(C)=[N+]2[B-](CC)(CC)n2c(C)cc(C)c21)[C@@H](C)CC | DPBF degradation | isopropyl alcohol | irradiation above 500 nm | baseline: methylene blue | relative singlet oxygen generation | 6.3 ± 3.8%
[Cl-].[Cl-].[Ru+2].c1ccc2nc(-c3ccc4ccccc4n3)ccc2c1.c1ccc2nc(-c3ccc4ccccc4n3)ccc2c1.c1cnc2c(c1)ccc1cccnc12 | C18 HPLC retention time | water | 100 µM | baseline: standards of known log P | relative log P | 1.28

A few entries again:
Compound | assay | system | conditions | scale | measurement | value
[Cl-].[Cl-].[Ru+2].c1ccc(-c2ccccn2)nc1.c1ccc(-c2ccccn2)nc1.c1ccc(-c2ccccn2)nc1 | C18 HPLC retention time | water | 100 µM | baseline: standards of known log P | relative log P | 1.11
